Measured values from different studies.
Compare with care: the assays were run in different laboratories. Values joined by “and” are separate records of one study, mostly repeats; a detail may differ. ± marks the error that the study gave.

CNC(=O)c1cc(Cl)c(OC(C)(C)C(=O)O)cc1OC[C@@H](O)CN1CCC2(CC1)Cc1cc(Cl)ccc1O2  absorption rate constant (human; oral): 0.3 h⁻¹
C[C@@H]1N=C(c2ccccc2F)c2cc(Br)ccc2-n2cnc(C(=O)O)c21  half-life (mice, blood; oral gavage, 100 mg/kg): 0.797 h
O=S(=O)(Nc1ccccc1)c1ccc(NC(=S)Nc2ccccc2)cc1  blood chemistry level (measured: BUN; female mouse, blood; oral, 20 mg/kg daily, 14 days): 15.2 mg/dL
CC1(C)[C@H](C=C(Cl)Cl)[C@H]1C(=O)OCc1cccc(Oc2ccccc2)c1  enzyme contribution to clearance (measured: CYP2C19; human, age 1 year, recombinant human CYP2C19; 0.1 µM): 0.28%
C[C@@H](NC(=O)N1C(=O)[C@H](Cc2ccnc(N)c2)[C@H]1C(=O)O)C1CCCCC1  incidence of grade 3 or higher AEs (healthy adult Chinese volunteers; continuous intravenous infusion, 2.25 mg/kg/h, 5-day infusion, CTCAE 5.0 grading): 0%
COc1ccc([C@@H]2CC(=O)c3c(O)cc(O)cc3O2)cc1O  faecal excreted amount (male Sprague-Dawley rat, obese; oral, 100 mg/kg of neohesperidin, 0 to 12 h): 489 ± 324 ng
C=CC(=O)N1CC[C@H](n2nc(C#Cc3cc(OC)cc(OC)c3)c3c(N)ncnc32)C1  hyponatremia incidence, grade ≥3 (human patients; oral, dose not given, QD regimen, adverse drug reaction, with: ferric citrate hydrate): 0%
COc1ncccc1-c1cnn2ccc(N3CCN(C(=O)OC(C)C)CC3)nc12  free plasma concentration (mouse, open field test, plasma; oral, 60 mg/kg, 60 min): 338 nM
O=C(O)CCCOc1ccc(F)cc1-c1cc(-c2ccccc2C(F)(F)F)n(-c2ccccc2)n1  relative organ weight (male Crl:CD(SD) rats, kidneys; intravenous, 25 µg/kg, 14 d): 0.74 ± 0.08 g%
COc1ccc(-c2c(-c3ccc(C#N)c(F)c3)nc(N3CCC(N)CC3)n(C)c2=O)cc1F  any-grade TRAE incidence (measured: ≥1 event; relapsed/refractory MZL patients; oral, 60 mg, dose expansion): 67%
CC(C)C[C@H](NC(=O)[C@H](CCCCN)NC(=O)OCC1c2ccccc2-c2ccccc21)C(=O)N[C@H](C(=O)N[C@@H](Cc1ccccc1)C(=O)N[C@@H](Cc1ccccc1)C(=O)N[C@@H](CCCCN)C(=O)NCC(=O)N[C@@H](Cc1ccccc1)C(=O)N[C@@H](C)C(=O)N[C@@H](Cc1c[nH]c2ccccc12)C(=O)N[C@@H](CC(N)=O)C(=O)N[C@H](C(=O)N[C@H]1CSSC[C@@H](C(=O)N[C@@H](Cc2c[nH]cn2)C(=O)N[C@@H](CCCNC(=N)N)C(=O)N[C@@H](CCCNC(=N)N)C(=O)N[C@@H](C)C(=O)N[C@@H](CC(N)=O)C(N)=O)NC(=O)[C@H](C(C)C)NC(=O)[C@H](CCCNC(=N)N)NC(=O)[C@H](C(C)C)NC(=O)CNC(=O)[C@H](CC(N)=O)NC(=O)[C@H](CCCNC(=N)N)NC(=O)[C@H](Cc2ccc(O)cc2)NC(=O)[C@H](C(C)C)NC1=O)C(C)C)C(C)C  peptide remaining (mouse mammary gland homogenate 50 mg/mL; 2.00 h, 37 °C): 86.1%
C[C@@H]1OC(=O)NN=C1c1ccc(-c2ccc(F)cc2)c(C(F)(F)F)c1  patients with adverse event (phase I trial, measured: Dyspnoea worst grade 2; human patients; 5 mg loading then 0.25 mg daily): 0%
N[C@@H]1c2ccccc2OC12CCN(c1cnc3c(N4CCCc5ncccc54)n[nH]c3n1)CC2  left ventricular ejection fraction (human; 50 mg once daily, cycle 2): 55%
COc1ccc([C@@H](O)c2cc(-c3ncnc4cc(N5CCOCC5)ccc34)c(F)cc2Cl)nn1  stomatitis incidence (patients, advanced solid tumours; oral, 300 mg twice daily, treatment-emergent, with: avelumab; relative to: patients): 4%
CCc1ccc(CC/C=C/c2ccc3c(c2)C(=O)CC3)cc1  TC (Sprague-Dawley rat, male; oral, 450 mg/kg/day, 14 days): 1.83 mM
O=C1Nc2cc3[nH]nc(-c4ccncc4)c3cc2CN1Cc1ccccc1  patients with dyspnoea (CTCAE v4.03; advanced solid tumour patients; intravenous, 9.6 mg/kg, schedules 1/2): 11%
CC(=O)c1c(C)c2cnc(Nc3ccc(C4CCN(CCS(C)(=O)=O)CC4)cn3)nc2n(C2CCCC2)c1=O  patients with serious AE (HR+/HER2- advanced breast cancer patients; oral, 150 mg): 33.3%
CC(C)n1c(C2CCNCC2)nc2c([N+](=O)[O-])c(Br)c(Br)cc21  related grade ≥3 adverse events (measured: Anemia; AML patients; dose not given, all doses): 3%
COS(C)(=O)=O  micronucleated PCE per 1000 PCE (male Hsd:ICR (CD-1) mouse, bone marrow; oral, 40 mg/kg/day, positive control): 6.7
CC(C)N(CCc1c[nH]c2cccc(OC(=O)CCCC(=O)O)c12)C(C)C.Cl  Cmax (male beagle dog, plasma; intravenous, 1 mg/kg): 1870 ng/mL
N#C/N=C1\SCCN1Cc1ccc(Cl)nc1  recovery (soil; 0 days, nominal 10): 52%
CC[C@H](C)[C@H](NC(=O)[C@H](Cc1ccccc1)NC(=O)[C@H](CCC(=O)O)NC(=O)[C@H](CCCNC(=N)N)NC(=O)[C@H](C)NC(=O)[C@H](C)NC(=O)[C@H](CCC(N)=O)NC(=O)[C@H](CCC(=O)O)NC(=O)[C@H](CCC(=O)O)NC(=O)[C@H](CC(C)C)NC(=O)[C@H](Cc1ccc(O)cc1)NC(=O)[C@H](CO)NC(=O)[C@H](CO)NC(=O)[C@@H](NC(=O)[C@H](CC(=O)O)NC(=O)[C@H](CO)NC(=O)[C@@H](NC(=O)[C@H](Cc1ccccc1)NC(=O)[C@@H](NC(=O)CNC(=O)[C@H](CCC(=O)O)NC(=O)[C@H](C)NC(=O)CCc1cnc[nH]1)[C@@H](C)O)[C@@H](C)O)C(C)C)C(=O)N[C@@H](C)C(=O)N[C@@H](Cc1c[nH]c2ccccc12)C(=O)N[C@@H](CC(C)C)C(=O)N[C@H](C(=O)N[C@@H](CCCNC(=N)N)C(=O)NCC(=O)N[C@@H](CCCNC(=N)N)C(=O)N[C@@H](CCCCNC(=O)COCCOCCNC(=O)COCCOCCNC(=O)CC[C@H](NC(=O)CCCCCCCCCCCCCCCCC(=O)O)C(=O)O)C(=O)NCC(=O)NCC(=O)N[C@@H](CO)C(=O)N[C@@H](CCSC)C(=O)N[C@H](C(=O)N[C@@H](CCCCNc1c(NCCCCCN(O)C(=O)CCC(=O)NCCCCCN(O)C(=O)CCC(=O)NCCCCCN(O)C(C)=O)c(=O)c1=O)C(=O)O)C(C)C)C(C)C [zirconium-89 labelled]  tissue uptake (ex vivo gamma counting; male Sprague-Dawley rats, colon; intravenous, 5 MBq (1 nmol), 24 h): 0.164 %ID/g and 0.155 %ID/g and 0.147 %ID/g
O=c1ccc2ncc(=O)n3c2n1C[C@H]3CN1CCC(NCc2cc3c(cn2)OCCC3)CC1  renal clearance (healthy human volunteers; oral, 1500 mg, alone, arithmetic mean): 280 mL/min
Cc1cc(C)c(CNC(=O)c2cc(Cl)c3c(c2C)O[C@@](C)([C@H]2CC[C@H](N(C)C)CC2)O3)c(=O)[nH]1  incidence of lactic acidosis (relapsed/refractory NHL patients; dose not given, trial, safety set, treatment-related TEAE grade 5): 0%
COc1cc2c(Oc3ccc4[nH]c(C)cc4c3F)ccnc2cc1OCC1(N)CC1  grade 1 or 2 TBIL elevation (paediatric recurrent refractory sarcoma; 12 mg): 0%
C[C@@H]1COCCN1c1cc(C2([S@](C)(=N)=O)CC2)nc(-c2cc[nH]c3nccc2-3)n1  discontinuation due to adverse event (patients, advanced solid tumours; oral, 40 mg twice daily, 10 days, with: carboplatin): 0 % patients
c1ccc2cc3c(ccc4ccccc43)cc2c1  metabolism rate (pooled human liver microsomes; 2.5 µM, pH 7.4): 21.6 pmol/min/mg
CCC[C@@](N)(CO)CCc1ccc(OCCCCCC(C)C)cc1  half-life (dog; oral, 15 mg/kg): 16.9 h
[O-][S+]1CCc2nc(N3CCC(c4ncc(Cl)cn4)CC3)nc(NC3(CO)CCC3)c21 (stereo not shown)  creatine kinase (phase I trial; healthy male volunteers, blood; oral, 6 mg twice daily, after last treatment): 309 U/L
CO[C@H]1C[C@@H]2CC[C@@H](C)[C@@](O)(O2)C(=O)C(=O)N2CCCC[C@H]2C(=O)O[C@H]([C@H](C)C[C@@H]2CC[C@@H](OC(=O)NCCOCCOCCOCCOCCOCCOCCOCCOCCC(=O)N3CCc4cc(Cn5nc(-c6ccc7oc(N)nc7c6)c6c(N)ncnc65)ccc4C3)[C@H](OC)C2)C[C@@H](O)[C@H](C)/C=C(\C)[C@@H](O)[C@@H](OC)C(=O)[C@H](C)C[C@H](C)/C=C/C=C/C=C/1C  dose-reducing adverse events (phase 1 dose escalation, measured: neutropenia; advanced solid tumour patients; intravenous, 10 mg weekly, any grade): 0%
C[C@]1(CO)Cc2ncn(-c3ccc(C#N)c(Cl)c3)c2C(=O)O1  drug-related AE incidence (human; 0.7 to 80 mg, European single ascending dose): 8.3%
COc1ccc(-c2[nH]c3c(OP(=O)([O-])[O-])c(OC)ccc3c2C(=O)c2cc(OC)c(OC)c(OC)c2)cc1OC.[Na+].[Na+]  time to death (mouse, BALB/c female, 4T1-Luc tumour; intraperitoneal, 50 mg/kg): ≤ 24 h
O=C(Nc1ccccc1)C1CCN(C(=O)Oc2cccnc2)CC1  subjects with adverse event (measured: musculoskeletal disorders; healthy women; oral, 100 mg, 9 days): 7.7%
C=CCNc1c(O)cc2c(O)c1C[C@@H](C)C[C@H](OC)[C@H](O)[C@@H](C)/C=C(\C)[C@H](OC(N)=O)[C@@H](OC)/C=C\C=C(/C)C(=O)N2  patients with lipase increase (unresectable or metastatic sarcoma; intravenous, 400 mg/m^2, grade 3-4 lab change): 6%
CN1CC[C@@H](c2c(O)cc(O)c3c(=O)cc(-c4ccc(C(F)(F)F)cc4Cl)oc23)[C@@H]1CO  patients with adverse event (measured: Hypotension; AML; oral, 150 mg, intermittent dosing): 25%
CCN1[C@@H](C(=O)NC23CCC(C(=O)O)(CC2)CC3)[C@H](c2cccc(Cl)c2F)[C@]2(C(=O)Nc3cc(Cl)ccc32)C12CCCCC2  MTD (human, advanced solid tumours; oral, every other day, 21 d on 7 d off): 150 mg
CCCC(CCC)NC(=O)c1ccc2c(c1)OCO2  micronucleated PCEs (Swiss albino CD-1 mice, male, bone marrow; intraperitoneal, 700 mg/kg, 36 h): 0.1%

Some of these lines once more:
N[C@@H]1c2ccccc2OC12CCN(c1cnc3c(N4CCCc5ncccc54)n[nH]c3n1)CC2  left ventricular ejection fraction (human; 50 mg once daily, cycle 2): 55%
COc1ccc([C@@H](O)c2cc(-c3ncnc4cc(N5CCOCC5)ccc34)c(F)cc2Cl)nn1  stomatitis incidence (patients, advanced solid tumours; oral, 300 mg twice daily, treatment-emergent, with: avelumab; relative to: patients): 4%
CCc1ccc(CC/C=C/c2ccc3c(c2)C(=O)CC3)cc1  TC (Sprague-Dawley rat, male; oral, 450 mg/kg/day, 14 days): 1.83 mM
O=C1Nc2cc3[nH]nc(-c4ccncc4)c3cc2CN1Cc1ccccc1  patients with dyspnoea (CTCAE v4.03; advanced solid tumour patients; intravenous, 9.6 mg/kg, schedules 1/2): 11%
CC(=O)c1c(C)c2cnc(Nc3ccc(C4CCN(CCS(C)(=O)=O)CC4)cn3)nc2n(C2CCCC2)c1=O  patients with serious AE (HR+/HER2- advanced breast cancer patients; oral, 150 mg): 33.3%
CC(C)n1c(C2CCNCC2)nc2c([N+](=O)[O-])c(Br)c(Br)cc21  related grade ≥3 adverse events (measured: Anemia; AML patients; dose not given, all doses): 3%
